Published values of several laboratories.
Every numbered part comes from another study and shows a few of its results, in no order. Positions count from the first letter of the parent shown.
Chain of UniProt Q6P3R8 (whole entry, looked up): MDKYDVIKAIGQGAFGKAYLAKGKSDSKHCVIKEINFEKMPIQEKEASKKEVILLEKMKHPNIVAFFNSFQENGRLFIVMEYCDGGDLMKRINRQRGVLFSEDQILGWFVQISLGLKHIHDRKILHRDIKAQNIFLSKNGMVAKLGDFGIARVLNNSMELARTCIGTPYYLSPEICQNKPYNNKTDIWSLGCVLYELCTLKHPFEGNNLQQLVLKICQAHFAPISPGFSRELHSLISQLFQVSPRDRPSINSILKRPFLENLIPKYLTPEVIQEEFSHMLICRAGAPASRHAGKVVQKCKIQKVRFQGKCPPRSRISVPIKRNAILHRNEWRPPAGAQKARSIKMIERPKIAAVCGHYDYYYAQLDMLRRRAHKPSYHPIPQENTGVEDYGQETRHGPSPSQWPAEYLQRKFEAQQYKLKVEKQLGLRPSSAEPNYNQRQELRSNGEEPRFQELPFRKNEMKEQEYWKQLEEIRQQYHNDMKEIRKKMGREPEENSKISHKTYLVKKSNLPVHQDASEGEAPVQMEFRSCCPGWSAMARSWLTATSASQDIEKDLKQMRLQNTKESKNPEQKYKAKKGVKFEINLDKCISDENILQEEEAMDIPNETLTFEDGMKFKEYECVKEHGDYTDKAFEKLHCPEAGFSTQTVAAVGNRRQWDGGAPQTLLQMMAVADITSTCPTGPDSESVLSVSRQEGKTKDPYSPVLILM
Chain of UniProt Q09013 (whole entry, looked up): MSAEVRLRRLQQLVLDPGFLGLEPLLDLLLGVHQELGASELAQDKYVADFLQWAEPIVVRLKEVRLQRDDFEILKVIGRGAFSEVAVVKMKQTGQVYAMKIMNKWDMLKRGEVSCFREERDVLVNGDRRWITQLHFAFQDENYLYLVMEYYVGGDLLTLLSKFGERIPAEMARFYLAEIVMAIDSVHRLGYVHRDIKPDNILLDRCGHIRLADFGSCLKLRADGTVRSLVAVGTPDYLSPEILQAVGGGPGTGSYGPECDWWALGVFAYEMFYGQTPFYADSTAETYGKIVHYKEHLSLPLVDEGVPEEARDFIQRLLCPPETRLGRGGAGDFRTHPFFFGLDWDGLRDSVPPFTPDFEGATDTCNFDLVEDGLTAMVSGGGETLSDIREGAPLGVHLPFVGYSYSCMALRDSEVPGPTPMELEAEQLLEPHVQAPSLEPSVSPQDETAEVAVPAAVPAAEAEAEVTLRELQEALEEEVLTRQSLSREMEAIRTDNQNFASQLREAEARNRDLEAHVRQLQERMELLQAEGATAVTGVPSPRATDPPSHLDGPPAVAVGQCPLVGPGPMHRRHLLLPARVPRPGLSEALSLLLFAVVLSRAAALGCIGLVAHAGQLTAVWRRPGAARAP
Chain of UniProt Q2M2I8 (whole entry, looked up): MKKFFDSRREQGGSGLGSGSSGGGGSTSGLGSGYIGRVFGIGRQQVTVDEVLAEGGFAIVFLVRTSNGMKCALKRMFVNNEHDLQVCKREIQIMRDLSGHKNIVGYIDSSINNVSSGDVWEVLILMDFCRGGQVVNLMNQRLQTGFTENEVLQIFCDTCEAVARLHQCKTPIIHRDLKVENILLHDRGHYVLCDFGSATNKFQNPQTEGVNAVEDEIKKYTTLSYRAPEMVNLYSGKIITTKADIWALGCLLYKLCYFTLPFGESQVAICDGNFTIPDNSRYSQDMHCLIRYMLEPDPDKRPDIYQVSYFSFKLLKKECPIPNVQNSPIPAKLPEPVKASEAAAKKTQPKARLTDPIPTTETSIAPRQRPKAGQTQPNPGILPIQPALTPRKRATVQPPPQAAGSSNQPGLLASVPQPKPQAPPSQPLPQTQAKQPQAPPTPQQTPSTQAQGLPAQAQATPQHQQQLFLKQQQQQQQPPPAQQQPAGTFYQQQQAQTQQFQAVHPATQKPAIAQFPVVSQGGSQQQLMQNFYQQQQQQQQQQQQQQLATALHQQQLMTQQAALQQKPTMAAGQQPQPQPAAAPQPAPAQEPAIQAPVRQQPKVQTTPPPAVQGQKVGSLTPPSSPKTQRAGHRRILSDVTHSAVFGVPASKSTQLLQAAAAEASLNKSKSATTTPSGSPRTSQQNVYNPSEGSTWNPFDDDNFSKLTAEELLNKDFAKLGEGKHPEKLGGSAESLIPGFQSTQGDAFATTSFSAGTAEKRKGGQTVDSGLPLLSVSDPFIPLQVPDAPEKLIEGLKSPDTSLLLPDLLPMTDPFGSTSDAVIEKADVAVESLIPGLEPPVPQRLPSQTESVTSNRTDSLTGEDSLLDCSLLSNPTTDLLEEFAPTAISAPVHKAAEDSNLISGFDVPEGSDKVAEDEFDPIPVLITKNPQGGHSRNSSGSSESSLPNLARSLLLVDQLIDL
Chain of UniProt Q9H0K1 (whole entry, looked up): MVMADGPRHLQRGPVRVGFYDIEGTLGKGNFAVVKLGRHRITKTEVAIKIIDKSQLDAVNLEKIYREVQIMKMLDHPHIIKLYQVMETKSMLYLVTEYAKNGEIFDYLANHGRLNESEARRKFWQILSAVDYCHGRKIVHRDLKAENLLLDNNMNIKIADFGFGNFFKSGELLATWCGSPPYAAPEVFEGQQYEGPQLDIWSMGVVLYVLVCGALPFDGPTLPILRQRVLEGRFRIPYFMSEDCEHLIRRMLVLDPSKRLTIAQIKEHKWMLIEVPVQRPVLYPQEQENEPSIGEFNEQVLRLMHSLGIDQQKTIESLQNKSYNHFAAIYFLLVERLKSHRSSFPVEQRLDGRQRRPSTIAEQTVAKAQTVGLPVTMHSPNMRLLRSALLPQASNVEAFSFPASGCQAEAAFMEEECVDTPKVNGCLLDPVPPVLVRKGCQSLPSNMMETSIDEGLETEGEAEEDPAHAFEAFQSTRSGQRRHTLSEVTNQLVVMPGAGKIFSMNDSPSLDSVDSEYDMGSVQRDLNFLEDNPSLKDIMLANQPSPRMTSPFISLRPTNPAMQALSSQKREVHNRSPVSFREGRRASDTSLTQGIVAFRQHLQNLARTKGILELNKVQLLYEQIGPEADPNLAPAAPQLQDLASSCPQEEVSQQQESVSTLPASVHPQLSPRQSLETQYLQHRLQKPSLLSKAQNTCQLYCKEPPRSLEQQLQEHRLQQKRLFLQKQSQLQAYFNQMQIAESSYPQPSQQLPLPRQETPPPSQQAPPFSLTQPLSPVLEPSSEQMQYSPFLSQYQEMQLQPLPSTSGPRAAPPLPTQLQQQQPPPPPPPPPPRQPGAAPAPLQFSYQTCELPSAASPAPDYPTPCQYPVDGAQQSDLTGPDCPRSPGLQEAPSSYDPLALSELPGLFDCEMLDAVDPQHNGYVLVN

Sample 1
Target: CCNA2, cyclin fold, Cln2 fusion (human)
Technique: yeast growth competition, sequencing
Sample: yeast
Setting: strong parent motif
Baseline: not given
Direction: higher = stronger binding
Quantity: normalised enrichment score
Starting sequence: E2F1 docking peptide (human); PPVKRRLDLETDH; partner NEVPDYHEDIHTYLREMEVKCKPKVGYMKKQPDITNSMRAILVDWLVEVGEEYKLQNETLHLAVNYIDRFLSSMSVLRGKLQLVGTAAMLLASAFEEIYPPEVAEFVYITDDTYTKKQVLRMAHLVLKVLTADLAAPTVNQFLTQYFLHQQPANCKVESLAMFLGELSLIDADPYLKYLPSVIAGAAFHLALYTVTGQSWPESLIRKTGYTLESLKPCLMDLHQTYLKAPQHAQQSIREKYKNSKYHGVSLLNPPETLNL
E10K: 2.7
T11H: 3.57
P1A: 4.55
R5S: -0.0468
P1M: 5.2
E10V: 3.65
E10F: 4.14
R6M: 2.4

Sample 2
Structure (SMILES): Cc1c(NC(=O)c2cc(C(N)=O)nc3cc(F)ccc23)c(C(F)(F)F)nn1Cc1ccc(C(C)(C)C)cc1
Tested at: 1 µM
Quantity: remaining binding
DMPK (Homo sapiens, UniProt Q09013); cell-free assay, competition with immobilised ligand: 100%
AAK1 (Homo sapiens, UniProt Q2M2I8); binding: 83%
NEK5 (Homo sapiens, UniProt Q6P3R8); cell-free assay, competition with immobilised ligand: 100%
EGFR (Homo sapiens, UniProt P00533, L858R); cell-free assay, competition with immobilised ligand: 100%
SIK2 (Homo sapiens, UniProt Q9H0K1); cell-free assay, competition with immobilised ligand: 100%

Sample 3
Target: Serine/threonine-protein kinase N2 (PKN2, Homo sapiens, UniProt Q16513)
Chain of UniProt Q16513 (whole entry, looked up): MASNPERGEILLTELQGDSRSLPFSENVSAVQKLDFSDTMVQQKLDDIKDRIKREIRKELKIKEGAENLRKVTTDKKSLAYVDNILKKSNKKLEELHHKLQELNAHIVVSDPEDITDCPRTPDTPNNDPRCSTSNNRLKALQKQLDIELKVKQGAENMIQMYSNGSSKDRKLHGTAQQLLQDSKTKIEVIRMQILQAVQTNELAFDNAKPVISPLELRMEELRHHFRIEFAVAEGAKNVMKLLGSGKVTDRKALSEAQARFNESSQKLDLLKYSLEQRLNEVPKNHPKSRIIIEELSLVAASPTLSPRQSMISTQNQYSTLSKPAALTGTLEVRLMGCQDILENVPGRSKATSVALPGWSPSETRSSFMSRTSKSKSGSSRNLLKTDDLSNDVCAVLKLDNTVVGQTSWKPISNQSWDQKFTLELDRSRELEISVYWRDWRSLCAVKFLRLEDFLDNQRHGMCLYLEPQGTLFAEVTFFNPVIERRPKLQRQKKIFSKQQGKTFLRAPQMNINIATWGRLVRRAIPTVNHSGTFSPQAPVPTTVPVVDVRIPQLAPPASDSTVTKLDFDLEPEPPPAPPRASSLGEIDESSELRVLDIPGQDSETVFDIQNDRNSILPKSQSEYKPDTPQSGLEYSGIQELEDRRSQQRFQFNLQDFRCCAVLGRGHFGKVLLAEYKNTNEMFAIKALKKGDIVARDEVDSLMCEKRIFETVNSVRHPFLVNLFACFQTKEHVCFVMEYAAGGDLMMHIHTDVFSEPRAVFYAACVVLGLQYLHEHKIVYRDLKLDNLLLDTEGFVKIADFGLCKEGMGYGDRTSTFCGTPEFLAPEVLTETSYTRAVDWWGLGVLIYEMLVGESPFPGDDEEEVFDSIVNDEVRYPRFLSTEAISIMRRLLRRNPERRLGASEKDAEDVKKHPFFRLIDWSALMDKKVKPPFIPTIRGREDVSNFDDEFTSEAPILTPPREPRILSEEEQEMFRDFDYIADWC
Observed: enzyme activity
Mode: inhibitor
Tested at: 0.5 µM
Baseline: control
Quantity: remaining activity
NC(=O)c1ccc(-c2nc(-c3ccc4c(c3)OCCO4)c(-c3ccccn3)[nH]2)cc1: 102%
COc1ccc2c(c1)c(C1=C(c3c[nH]c4ccccc34)C(=O)NC1=O)cn2CCCN(C)C: 95%
CCCCc1c(-c2ccc(OC)cc2)[nH]c2nccnc12: 88.6%
CC(C)(C)c1nc2c3cc[nH]c(=O)c3c3cc(F)ccc3c2[nH]1: 67.1%
CCCNC(=O)Nc1ccc(Oc2ncnc3cc(OC)c(OC)cc23)cc1Cl: 99.2%
O=C1Nc2ccc(Br)cc2/C1=C/c1cc2c([nH]1)CCCC2: 91.3%
COc1cc2c(Nc3ccc(Br)cc3F)ncnc2cc1OCC1CCN(C)CC1: 99.7%
COc1cc2c(N3CCN(C(=O)Nc4ccc(OC(C)C)cc4)CC3)ncnc2cc1OCCCN1CCCCC1: 110%
O=Nc1c(-c2c(O)[nH]c3cc(Br)ccc23)[nH]c2ccccc12: 85.6%
Oc1cccc(-c2nc(N3CCOCC3)c3oc4ncccc4c3n2)c1: 87.6%
N#C/C(=C(/N)SC1C=CC=CC1)c1cccc(C(O)c2ccncc2)c1 (stereo not shown): 80.8%
N#Cc1cnc2cnc(NCc3cccnc3)cc2c1Nc1ccc(F)c(Cl)c1: 85.9%
CC(C)N(CCC(=O)c1ccc2ccccc2c1)Cc1ccccc1: 98.7%
FC(F)(F)c1ccc(/C=C/c2nc(COc3ccc(CCCCn4ccnn4)cc3)co2)cc1: 107%
Nc1nc(Nc2ccc(S(N)(=O)=O)cc2)nn1C(=S)Nc1c(F)cccc1F: 19.1%
O=c1cc(N2CCOCC2)oc2c(-c3ccccc3)cccc12: 98.6%
CCN(CC)CCCCN1c2ccccc2Oc2ccc(Cl)cc21: 72.4%
O=C1NC(=O)/C(=C/c2ccc3c(c2)OC(F)(F)O3)S1: 113%

Sample 4
Target: Transcription factor Sp1 (SP1, Homo sapiens, UniProt P08047, residues 1-785, full length assumed)
Chain of UniProt P08047 (whole entry, looked up): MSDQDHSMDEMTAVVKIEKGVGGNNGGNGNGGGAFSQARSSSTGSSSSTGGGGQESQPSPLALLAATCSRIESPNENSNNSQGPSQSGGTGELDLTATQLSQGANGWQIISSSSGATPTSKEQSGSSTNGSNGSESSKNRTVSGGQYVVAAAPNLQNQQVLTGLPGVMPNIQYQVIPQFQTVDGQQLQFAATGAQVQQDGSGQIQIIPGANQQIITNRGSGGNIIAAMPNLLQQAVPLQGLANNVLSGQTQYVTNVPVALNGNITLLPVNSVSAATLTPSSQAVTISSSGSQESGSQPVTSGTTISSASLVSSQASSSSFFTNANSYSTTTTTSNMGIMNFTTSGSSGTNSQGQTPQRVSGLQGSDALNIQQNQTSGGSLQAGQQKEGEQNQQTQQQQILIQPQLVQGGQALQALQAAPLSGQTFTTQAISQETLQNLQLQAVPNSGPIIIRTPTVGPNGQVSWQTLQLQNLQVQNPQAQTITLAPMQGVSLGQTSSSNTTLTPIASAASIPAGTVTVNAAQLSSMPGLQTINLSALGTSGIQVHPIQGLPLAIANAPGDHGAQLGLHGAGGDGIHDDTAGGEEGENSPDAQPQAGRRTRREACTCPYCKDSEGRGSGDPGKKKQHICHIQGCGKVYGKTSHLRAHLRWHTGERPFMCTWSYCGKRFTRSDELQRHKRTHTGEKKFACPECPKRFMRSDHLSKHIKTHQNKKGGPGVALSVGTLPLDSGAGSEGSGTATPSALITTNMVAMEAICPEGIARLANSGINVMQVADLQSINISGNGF
Technique: protein-binding microarray
Form: double-stranded DNA, one strand shown
Sample: in vitro
Tested at: not given
Setting: k-mer, scored over probes, only values ≥0.25
Direction: higher = stronger binding
Quantity: E-score
ACCCCTCA: 0.344
ATAACCCC: 0.265
ATTATTCC: 0.252
CCTCCCCG: 0.439
TACATGTA: 0.29
AATTGGGG: 0.295
CCTAATCA: 0.28
CATGGGCG: 0.29

Sample 5
Partner: ARF7 1030-1164 (Arabidopsis thaliana, UniProt P93022)
Technique: two-hybrid
Baseline: out of 4 tests
Direction: higher = firmer interaction
Quantity: positive tests
B1: ARF4 660-788 (Arabidopsis thaliana, UniProt Q9ZTX9); chain QSSSKRICTKVHKQGSQVGRAIDLSRLNGYDDLLMELERLFNMEGLLRDPEKGWRILYTDSENDMMVVGDDPWHDFCNVVWKIHLYTKEEVENANDDNKSCLEQAALMMEASKSSSVSQPDSSPTITRV
B2: ARF2 727-859 (Arabidopsis thaliana, UniProt Q94JM3); chain TKTNSSRSCTKVHKQGIALGRSVDLSKFQNYEELVAELDRLFEFNGELMAPKKDWLIVYTDEENDMMLVGDDPWQEFCCMVRKIFIYTKEEVRKMNPGTLSCRSEEEAVVGEGSDAKDAKSASNPSLSSAGNS
B3: ARF5 788-902 (Arabidopsis thaliana, UniProt P93024); chain ATPRVRTYTKVQKTGSVGRSIDVTSFKDYEELKSAIECMFGLEGLLTHPQSSGWKLVYVDYESDVLLVGDDPWEEFVGCVRCIRILSPTEVQQMSEEGMKLLNSAGINDLKTSVS
B4: IAA32 (Arabidopsis thaliana, UniProt Q8RYC6); chain MDPNTPADFFKGSSKFHTYYSQTKKGGGVIDLGLSLRTIQHETYLPPARMIGLDGYGELIDWSQPSYNSITQLKSEDTGHQRLAQGYYNNEGESRGKYAYVKVNLDGLVVGRKVCLVDQGAYATLALQLNDMFGMQTVSGLRLFQTESEFSLVYRDREGIWRNVGDVPWKEFVESVDRMRIARRNDALLPF
Construct (chain): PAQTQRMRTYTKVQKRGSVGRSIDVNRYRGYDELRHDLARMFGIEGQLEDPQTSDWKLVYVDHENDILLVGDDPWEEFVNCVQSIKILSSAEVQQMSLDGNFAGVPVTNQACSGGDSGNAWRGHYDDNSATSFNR
B1 (ARF4 660-788): 0
B2 (ARF2 727-859): 1
B3 (ARF5 788-902): 0
B4 (IAA32): 3

A few entries again (sample 2):
AAK1 (Homo sapiens, UniProt Q2M2I8); binding: 83%
NEK5 (Homo sapiens, UniProt Q6P3R8); cell-free assay, competition with immobilised ligand: 100%
EGFR (Homo sapiens, UniProt P00533, L858R); cell-free assay, competition with immobilised ligand: 100%
